Experimental data of several laboratories.
Parts stem from different laboratories: compare values within a part only.

Block 1 — method: RNA Bind-n-Seq; molecule type: RNA; medium: in vitro; concentration: 365 nM; relative to: no-protein control; direction: higher = stronger binding
Target: RNA binding protein fox-1 homolog 2, RRM domain, GST-SBP tag (RBFOX2, Homo sapiens, UniProt O43251-10, residues 100-194)
Notes: natural RNA segment, single round, ends assumed
Construct (chain): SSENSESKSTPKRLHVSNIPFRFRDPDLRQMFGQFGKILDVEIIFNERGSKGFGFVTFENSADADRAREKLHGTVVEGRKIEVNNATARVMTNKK
For `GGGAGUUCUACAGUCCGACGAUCAGAUACAGACCAAUUAGUUUAGAUCAAAUCACCUUCCACUUGGGCUACUUGUGACUUUCCAACCUGGUAACUUCCACUGAAUUCUGGAAAGAGAAAUUCUUGAGGACCCUUGGAAUUCUCGGGUGCCAA`, “RBNS enrichment (R)” read 0.358.
For `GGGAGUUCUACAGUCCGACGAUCAGGACAGUCUAUCUUAAAUUUCAUAUGAGAACUCCUUCCUCCCUUUGAAGAUCUGUCCAUAUUCAGGAAUCUGAGAGUGUAAAAAAGGUACCAAUCAUUGAUUUUUUUUUUGGAAUUCUCGGGUGCCAA`, “RBNS enrichment (R)” read 1.17.
Under “RBNS enrichment (R)”, `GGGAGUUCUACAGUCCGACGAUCUUUCCCCAGAGAUAAAGGCUGCCAUUUUGGGGGUCUGUACUUAUGGCCUGAAAAUAUUUGUGAUCCAUAACUCUACACAGCCUUUACUCAUACUAUUAGGCACACUUUCCUGGAAUUCUCGGGUGCCAA` is recorded as 0.455.
`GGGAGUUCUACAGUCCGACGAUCAUGCUAAAUGUUUUAAUCAAGAGAAGCACUGAUCUUAUAAUACGAGGAUAAGAGAUUUUCUCACAGGAAAUUGUCUUUUUCAUAAUUCUUUUACAGGCUUUGUCCUGAUCUGGAAUUCUCGGGUGCCAA`: “RBNS enrichment (R)” 0.661.
`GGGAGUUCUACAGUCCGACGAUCUGAGAGUACUCACUUUUCACUUGUCUUGCUCUUAGAUUGGGCCAUGGCUUUCAUCCUGUGUCCCCUGACCUGUCCAGGUGAGUGUGAGGGCAGCACUGGGAAGCUGGAGUUGGAAUUCUCGGGUGCCAA` — result for “RBNS enrichment (R)”: 0.476.
`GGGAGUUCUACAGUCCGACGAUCAAACAUUGUCCCUGCCCCCGGGGGCUCACAUGCCACUGGAAACAACAGACUCUUAAACUAACAAUUCAAGCAGGCGCCAAGUGCUAUGACAGAGGUGUGAAUAAAAGCAUUGGAAUUCUCGGGUGCCAA` — result for “RBNS enrichment (R)”: 0.301.
For `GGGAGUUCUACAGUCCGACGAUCGUGUAUCUCAAGGGACUUAAUUCAGCUGUCUGUAGUGAAUAAAAGUGGGAAAUUUUCAAAAGUUUCUCCUGCUGGAAAUAAGGUAUAAUUUGUAUUUUGCAGACAAUUCAUGGAAUUCUCGGGUGCCAA`, “RBNS enrichment (R)” read 0.507.
Under “RBNS enrichment (R)”, `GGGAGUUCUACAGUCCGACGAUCAAUUUGAUUAAAGGCAGAGUUUAGUAGACUUAAGAGCUUGCAAGGUUUUAAGAAAAUGUAGUGCCUCGUGGCUCCCUGGUUUAGUAACUUGGAGAGACAGUCUGUAGGAAUGGAAUUCUCGGGUGCCAA` is recorded as 0.786.

Block 2 — method: protein binding microarray; molecule type: double-stranded DNA, one strand shown; medium: in vitro; concentration: not given; relative to: not given; direction: higher = stronger binding
Target: Histone acetyltransferase KAT6A, winged helix 1, GST fusion (KAT6A, Homo sapiens, UniProt Q92794, residues 1-85)
Notes: 8-mer, flanks averaged, mean of 2 arrays, mostly near background
Residues (chain): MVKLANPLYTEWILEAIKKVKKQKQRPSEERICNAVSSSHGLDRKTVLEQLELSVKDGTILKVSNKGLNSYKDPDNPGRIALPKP
`ACGGCAAT` has an E-score of 0.347.
With `ATAAGTAT` the E-score was -0.0703.
`AGAACTTG` has an E-score of -0.152.
The E-score of `AACATGCG` is reported as 0.145.
`CTCGGCAA` has an E-score of 0.101.
The E-score of `GTCGTACA` is reported as -0.0615.
`CTCGAATC` has an E-score of -0.284.
The E-score of `CTCAACTC` is reported as -0.352.
With `AACCTCCA` the E-score was -0.111.
With `CCGTCATA` the E-score was 0.223.
For `AGTTAGAT`, the E-score was -0.174.
With `ATTACAAA` the E-score was -0.168.
`ACAGCAAT` has an E-score of -0.141.
For `GAAACATC`, the E-score was -0.0162.
`AAACCAGA` has an E-score of -0.122.
`CCGCGTCC` has an E-score of 0.31.
`CTTCGCCC` has an E-score of 0.155.
With `AAAGGGGG` the E-score was -0.151.
The E-score of `CTAAGCCA` is reported as -0.211.
`ACTTCTCT` has an E-score of -0.188.
For `GTGTTTAA`, the E-score was -0.0293.
`GCCGCTAA` has an E-score of 0.359.
For `AACAACCT`, the E-score was -0.271.

Block 3 — method: protein-binding microarray; molecule type: double-stranded DNA, one strand shown; medium: in vitro; concentration: 250 nM; notes: 60-bp whole probe; added: salmon DNA 0.4 mg/ml; relative to: random background probes; direction: higher = stronger binding; all sequences stand within: GCCTAGCAC … GTCTTGATTCGCTTGACGCTGCTG
Target: Interferon regulatory factor 5, full length, phosphomimetic (IRF5, Homo sapiens, UniProt Q13568-2, residues 1-514, K96S/S451D/S453D/S456D/S462D)
The log fluorescence of `GGTGTTTTACAGGTTCTCTTTGTGCTA` is reported as -0.0295 z-score.
`GACGGTATCGGGTATCGCGACGTGCTA` has a log fluorescence of 2.98 z-score.
`CACGGTCTCCTACTGCTGACGTGCTAG` has a log fluorescence of -0.388 z-score.
For `TTAGATTTGGGGTATCGATTAGTGCTA`, the log fluorescence was 2.35 z-score.
`TCAATTTTTTTTTTCATACTGTGCTAG` gave a log fluorescence of 1.33 z-score.
For `TAAAACATCATTTTTCCCTCGTGCTAG`, the log fluorescence was 0.823 z-score.
The log fluorescence of `TTAGATATCGTGTTTCGATTAGTGCTA` is reported as 6.88 z-score.
With `TTAGGAGTGGGTTTCGGTTAGTGCTAG` the log fluorescence was 7.99 z-score.
The log fluorescence of `TTAGCACTGCTTCTCCTTTAGTGCTAG` is reported as 0.182 z-score.
The log fluorescence of `GACGGTATCCTTATCCTTACGTGCTAG` is reported as 0.301 z-score.
`TTAGAACTGGGGTATGGATTAGTGCTA` has a log fluorescence of 0.00956 z-score.
`ACAGGTTCTCTTTTATTTTTGTGCTAG` gave a log fluorescence of 0.945 z-score.
`CTAATTAGAATTTTCATTAAGTGCTAG` gave a log fluorescence of 1.15 z-score.
The log fluorescence of `TCATGTTTGTCACTCTCAGAGTGCTAG` is reported as 0.387 z-score.
`TTAGGTATCCTTTTCCTTTGGTGCTAG` has a log fluorescence of 0.421 z-score.
`TCAGATTTCGGGTTTCGATTAGTGCTA` has a log fluorescence of 8.47 z-score.
For `AAGACTTTGCTCTGTGCGTAGGTGCTA`, the log fluorescence was -0.387 z-score.
For `TCATGTTTCCTCTTTCAACTGTGCTAG`, the log fluorescence was 1.94 z-score.

Block 4 — method: RNA Bind-n-Seq; molecule type: RNA; medium: in vitro; concentration: not given; relative to: input RNA pool; direction: higher = stronger binding
Target: RING finger protein unkempt homolog, zinc fingers 1-6, GST-SBP tag (UNK, Homo sapiens, UniProt Q9C0B0, residues 30-357)
Notes: RNA with constant flanks, human-mouse chimeric sites, ends assumed
Construct (chain): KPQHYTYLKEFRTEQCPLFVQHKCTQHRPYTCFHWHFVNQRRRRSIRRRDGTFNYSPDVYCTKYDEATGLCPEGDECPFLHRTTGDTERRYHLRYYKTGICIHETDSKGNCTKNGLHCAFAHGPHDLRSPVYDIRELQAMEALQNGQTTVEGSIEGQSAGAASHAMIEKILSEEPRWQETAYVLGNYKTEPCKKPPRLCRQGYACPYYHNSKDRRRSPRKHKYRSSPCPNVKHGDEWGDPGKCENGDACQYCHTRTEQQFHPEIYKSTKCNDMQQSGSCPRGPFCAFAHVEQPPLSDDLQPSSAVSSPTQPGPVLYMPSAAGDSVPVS
The bound/input enrichment of `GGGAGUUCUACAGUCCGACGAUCACCUCCCAGGCCUGGGAGCUUUUUGAACCGCUUUUUGGAAAGUUUUUGGCGUUUCUUUUCCUUCCCCAUACAAAGUGAUUACAGUUUCCCCCGCAAGGGUCUAUCGAAGGGCUUGACGGACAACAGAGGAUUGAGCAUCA` is reported as 0.5 ratio.
`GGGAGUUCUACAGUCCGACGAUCGCUGGAUCUUCUAAGUACCAGUGGGACAUUAUGAAAUCCCUUGGGCUCUCUGAUGACGACAUAGUGAAGUUUUCUGAAGCAGAGCACUGGCUUGAUUAUUUCCCACCACUGGCUAUUCAGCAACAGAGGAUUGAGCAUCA` gave a bound/input enrichment of 0.0815 ratio.
`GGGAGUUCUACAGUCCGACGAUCUCCUUGGACCCCAGUCAUAUAGGUGACCUGCAGAAAGCAGACACCAGUAGUCAAGGUGCUUUAGUGUUUCUCUCAAAGGACUACGAGAUAGAAAAUCAAAAUCCCCUGGCCUCUCCUACGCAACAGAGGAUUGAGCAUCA` gave a bound/input enrichment of 1.46 ratio.
`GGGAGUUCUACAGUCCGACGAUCGUAUACGGUUAUCGAGGAAAGGACUGUAGAGCUAAUGUAUACCUGCUUCCGACCGGGGAGAUAGUUUAUUUUAUCGCCUCAGUGGUAGUCCUGUUUAAUUAUGAGGAGAGGACUCAGCGACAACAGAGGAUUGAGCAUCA` gave a bound/input enrichment of 0.303 ratio.
`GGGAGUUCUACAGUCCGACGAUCUCAUUUUUCUCUUUUCUGAUCGUCAGGUAGGAAAAGCCUAAAGAUUAGUAAGAAAAGAAAACAGAAGCCAUGUUUCGAAGACCUGUGUUACAGGUAUUUCGUCAGUUUGUAAGACAUGAGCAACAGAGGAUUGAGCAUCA` gave a bound/input enrichment of 1.68 ratio.
`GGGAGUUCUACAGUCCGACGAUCGAAAGAGAACUAAAGCAACUAAUAGAGAAGAGGAUUGGCAAAGAGAAUUUCAUAGAGAAACUAGGAUUUAUUAGCAAACAUGAGUUAUAUUCCAGAGCGUCUCAGAAAACCCCAGCCAACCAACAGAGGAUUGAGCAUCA` has a bound/input enrichment of 4.39 ratio.
With `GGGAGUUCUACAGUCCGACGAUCGGACCAUAAUCAUGGAGGACAUAAUGCAGCUCCCCAAAGCGCGCGUCAACGCCAGCAUGUUACCACAGUAUAUCGACCGGCCCGUGUGCUUCGUGGGGAAGCUGGAAAAGAUUCAUCCCACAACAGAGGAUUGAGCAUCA` the bound/input enrichment was 0.0959 ratio.
`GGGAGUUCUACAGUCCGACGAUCGACCCACAGUGGUCUGAGGAGCAACUCAUUGCUGCAAAAUUCUGUUUUGCUGGCCUUCUUAUAGGCCAGACUGAAGUGGACAUCAUGAGUCAUGCCACACAAGCUAUUUUUGAAAUUCUGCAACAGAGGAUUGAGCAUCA` gave a bound/input enrichment of 0.151 ratio.

A few entries again (block 2):
`ACGGCAAT` has an E-score of 0.347.
With `ATAAGTAT` the E-score was -0.0703.
`AGAACTTG` has an E-score of -0.152.
The E-score of `AACATGCG` is reported as 0.145.
`CTCGGCAA` has an E-score of 0.101.
